# Measured values collected from several papers.
# Every numbered part comes from another study and shows a few of its results, in no order. Substitutions count along the parent as printed.

# Sample 1
# Target: ABI1, truncated, D143A, DHFR fusion (Arabidopsis thaliana)
# Method: DHFR PCA, deep sequencing
# Matrix: yeast
# Notes: methotrexate growth selection, single substitutions
# With: (+)-ABA 58 µM
# Baseline: wild-type fitted maximum
# Reading: higher = stronger binding
# Starting sequence: PYL1, truncated, DHFR fusion (Arabidopsis thaliana); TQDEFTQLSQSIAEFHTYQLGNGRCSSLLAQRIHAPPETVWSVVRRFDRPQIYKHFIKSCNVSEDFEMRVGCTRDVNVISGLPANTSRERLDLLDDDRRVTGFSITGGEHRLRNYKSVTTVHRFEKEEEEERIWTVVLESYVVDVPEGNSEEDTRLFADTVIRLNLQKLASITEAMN; partner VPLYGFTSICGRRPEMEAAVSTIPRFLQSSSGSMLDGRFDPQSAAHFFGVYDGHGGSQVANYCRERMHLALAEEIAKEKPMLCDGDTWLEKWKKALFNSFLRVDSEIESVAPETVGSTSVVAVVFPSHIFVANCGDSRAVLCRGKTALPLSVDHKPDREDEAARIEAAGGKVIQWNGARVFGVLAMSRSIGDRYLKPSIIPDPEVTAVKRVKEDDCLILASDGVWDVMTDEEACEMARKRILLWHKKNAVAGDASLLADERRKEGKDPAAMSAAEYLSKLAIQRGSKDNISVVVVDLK
Variant,relative binding score
N85M,87.4%
V121M,25%
L29W,16.2%
K126P,103%
N61Q,94.3%
S87H,19.3%

# Sample 2
# Target: CCNB1, cyclin fold, Cln2 fusion (human)
# Method: yeast growth competition, sequencing
# Matrix: yeast
# Notes: strong parent motif
# Baseline: not given
# Reading: higher = stronger binding
# Starting sequence: RBL2 docking peptide (human); STTRRRLFVENDS
Variant,normalised enrichment score
TTTRRRLFVENDS [S1T],0.798
SPTRRRLFVENDS [T2P],0.948
STTRRRLFVINDS [E10I],0.738
STTRRRLFFENDS [V9F],1.64
STTRRRLFVEMDS [N11M],1.11
STTRRRLFVENDN [S13N],0.321

# Sample 3
# Target: RING finger protein unkempt homolog, zinc fingers 1-6, GST-SBP tag (UNK, Homo sapiens, UniProt Q9C0B0, residues 30-357)
# UniProt Q9C0B0, sequence (30-357, looked up): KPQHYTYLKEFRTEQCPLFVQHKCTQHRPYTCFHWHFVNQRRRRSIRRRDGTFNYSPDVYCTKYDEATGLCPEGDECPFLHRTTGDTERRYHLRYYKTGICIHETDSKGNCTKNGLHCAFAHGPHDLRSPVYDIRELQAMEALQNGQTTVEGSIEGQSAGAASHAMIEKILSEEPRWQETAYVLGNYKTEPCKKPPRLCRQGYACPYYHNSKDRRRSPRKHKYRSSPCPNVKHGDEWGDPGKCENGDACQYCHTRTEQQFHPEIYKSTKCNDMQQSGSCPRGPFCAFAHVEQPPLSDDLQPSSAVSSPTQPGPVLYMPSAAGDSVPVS
# Method: RNA Bind-n-Seq
# Form: RNA
# Matrix: in vitro
# Tested at: not given
# Notes: RNA with constant flanks, human-mouse chimeric sites, ends assumed
# Baseline: input RNA pool
# Reading: higher = stronger binding
# All sequences stand within: GGGAGUUCUACAGUCCGACGAUC … CAACAGAGGAUUGAGCAUCA
Sequence,bound/input enrichment [ratio]
CCAAGUGAUUCAUCCCAAGGACAGGCCACCCCAUUUGGUGUUUGGAAUGAUGACAGUAUGGAAGGGCCUAGUCAAAAUGUUGAAGCUGAGUCAAUUCAGGAUGCCAUGAGUAUGGAAGAG,0.215
UCUUAACUUAUUCAUUUCUUAUUUUUAUAUAGCUAGAGCAAUAUUGUUAGUCUUAGACAAUAGCUCACAUUUUUUGAGAAGCAUGCCCUCCCUGUCCAUUUGUCUUAUAACAUGACCCAG,64.7
CUGGCACUCUAUCAGAUAUAUUAAUUUUUUAAUGUAGAUGUAAUUUUAAAAAUGAAUGGCUACUUUACGUGAUAGAUUAGGGUUUUACUACAUAUGUGUACAUAUGUAUAUAUAUAUAUA,8.92
UUUCUACUGCAGCAAACGAUGCUAAGAAUUAAGGAUCCUAAGAAGUCACUGGAUUUUUAUACGAGGGUUCUUGGACUGACCCUCCUGCAGAAGCUUGAUUUUCCCAUUAUGAAGUUCUCG,0.24
AACUUCGUGCAUCGGUUUCCCUUUGUAGCUGUUUCAAUUGGCUUCCUUGUGAAUAAAAAGAUAGAAUUUGGAAUUGUGUACAGUUGUGUGGAAGAUAAGAUGUACACCGGCAGGAAAGGG,3.75
GCACUUGGGAAUGUAAUCAGCGCCUUGGGGGACAAGAGCAAGAGAGCCACCCAUGUCCCUUACAGAGAUUCCAAGCUGACAAGACUCUUGCAGGAUUCCCUUGGGGGUAACAGCCAAACC,0.135
AGAUUCCCCCUCCUGAGACCUCCUCCGAAGUUGGAGUCUCUUACAGAUGCCUCAUCCCCUGUUAGCGUUUUAGUUUGGACCACCCAGCCUUGGACAAUUCCAGCCAACCAGGCAAUUUGC,1.18

# Other studies, line by line
Molecule,target,assay,test system,conditions,how to read,endpoint,value
"PhoQ, residues 284 288 289 292 302 303 AQGLTV","PhoP, residues 12 14 15 18 19 SEGLL (Escherichia coli, UniProt P23836)","Sort-seq, measured: YFP reporter",E. coli,"PhoQ-PhoP variant library, with: 10 µM Mg2+","baseline: high Mg2+ state, higher = stronger signaling",fold induction,10.6
